{"data": "Measured values collected from several papers", "cell line": "BT-549", "note": "Lines come from different studies, so protocols differ. Values joined by “and” are separate records of one study, mostly repeats; a detail may differ. pEC50, pIC50: −log10 of the molar value."}
{"SMILES": "CCOc1ccc(-c2nc3cc(-c4nc5cc(N6CCN(C)CC6)ccc5[nH]4)ccc3[nH]2)cc1OCC", "assay": "SRB", "setting": "10 µM, 48 h", "endpoint": "growth percent", "value": "-29.5%"}
{"SMILES": "C#C[C@@]1(O)[C@@H](CO)O[C@@H](n2cc(Br)c3c(N)ncnc32)[C@@H]1O", "assay": "SRB", "setting": "NCI-60 screen", "endpoint": "TGI", "value": "0.819 µM and 0.536 µM"}
{"SMILES": "CCn1cc(-c2cc(Cn3ccnc3)cc3c2CCN([C@H](c2cc(OC)ccn2)C2CC2)C3=O)c(C(F)(F)F)n1", "assay": "cell growth, inhibitor", "setting": "120 h", "endpoint": "pEC50", "value": 4.86}
{"SMILES": "CCCCN1CCN(c2ccc3[nH]c(-c4ccc5[nH]c(-c6cc(OC)c(OC)c(OC)c6)nc5c4)nc3c2)CC1", "assay": "SRB", "setting": "10 µM, 48 h", "endpoint": "growth percent", "value": "80.2%"}
{"SMILES": "Cn1cncc1C1=CN(c2ncnc3[nH]cnc23)CCS1", "endpoint": "TGI", "value": "35.5 µM"}
{"SMILES": "O=C1NC(=NCc2cccs2)S/C1=C\\c1ccc2ncccc2c1", "assay": "MTS", "setting": "NCI60 panel", "endpoint": "pIC50", "value": 5.32}
{"SMILES": "CCCN1CCN(c2ccc3nc(-c4ccc5nc(-c6cc(OC)ccc6OC)[nH]c5c4)[nH]c3c2)CC1", "assay": "SRB", "setting": "10 µM, 48 h", "endpoint": "growth percent", "value": "96.3%"}
{"SMILES": "Cc1cc(C)n(C(=S)[S][Au][PH](CCCCCC[PH]([Au][S]C(=S)n2nc(C)cc2C)(c2ccccc2)c2ccccc2)(c2ccccc2)c2ccccc2)n1", "assay": "cell growth, NCI-60 screen", "setting": "breast cancer", "endpoint": "log10 TGI", "value": -5.07}
{"SMILES": "CCCCN1CCN(c2ccc3[nH]c(-c4ccc5[nH]c(-c6ccc(C(F)(F)F)cc6)nc5c4)nc3c2)CC1", "assay": "SRB", "setting": "10 µM, 48 h", "endpoint": "growth percent", "value": "-53.2%"}
{"SMILES": "C#C[C@@]1(O)[C@@H](CO)O[C@@H](n2cc(F)c3c(N)ncnc32)[C@@H]1O", "assay": "SRB", "setting": "NCI-60 screen", "endpoint": "TGI", "value": "4.18 µM"}
{"SMILES": "Cc1cc(-c2ccccc2)n(-c2nc(-c3ccc(Cl)cc3)c3c(NC(=O)c4ccccc4)nnc-3[nH]2)n1", "assay": "SRB", "setting": "10 µM, NCI60 single-dose screen", "how to read": "reference: untreated", "endpoint": "cell growth", "value": "100%"}
{"SMILES": "C#C[C@@]1(O)[C@@H](CO)O[C@@H](n2cc(Cl)c3c(N)ncnc32)[C@@H]1O", "assay": "SRB", "setting": "NCI-60 screen", "endpoint": "TGI", "value": "0.64 µM and 0.685 µM"}
{"SMILES": "COc1cnc2cccc(N3CCc4c(cc(Cn5ccnc5C)cc4-c4cn(C)nc4C(F)(F)F)C3=O)c2c1", "assay": "cell growth, inhibitor", "setting": "120 h", "endpoint": "pEC50", "value": "< 4.52"}
